Measured values from different studies.
Numbers after ± are the reported error.
BLVRB: Flavin reductase (NADPH) (BLVRB, Homo sapiens, UniProt P30043)
KDM4E: Lysine-specific demethylase 4E (KDM4E, Homo sapiens, UniProt B2RXH2)
MAPK8: Mitogen-activated protein kinase 8 (MAPK8, Homo sapiens, UniProt P45983)
SIRT6: NAD-dependent protein deacylase sirtuin-6 (SIRT6, Homo sapiens, UniProt Q8N6T7)

The chains behind the UniProt entries cited, without tags or fusion partners. Residues count along the entry.
UniProt P30043, whole entry: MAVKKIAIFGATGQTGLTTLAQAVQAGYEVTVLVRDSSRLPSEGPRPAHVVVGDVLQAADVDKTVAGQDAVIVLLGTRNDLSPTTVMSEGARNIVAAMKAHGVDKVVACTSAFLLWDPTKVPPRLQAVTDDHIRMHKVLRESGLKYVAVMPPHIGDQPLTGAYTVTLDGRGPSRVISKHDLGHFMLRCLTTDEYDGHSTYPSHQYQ
UniProt B2RXH2, whole entry: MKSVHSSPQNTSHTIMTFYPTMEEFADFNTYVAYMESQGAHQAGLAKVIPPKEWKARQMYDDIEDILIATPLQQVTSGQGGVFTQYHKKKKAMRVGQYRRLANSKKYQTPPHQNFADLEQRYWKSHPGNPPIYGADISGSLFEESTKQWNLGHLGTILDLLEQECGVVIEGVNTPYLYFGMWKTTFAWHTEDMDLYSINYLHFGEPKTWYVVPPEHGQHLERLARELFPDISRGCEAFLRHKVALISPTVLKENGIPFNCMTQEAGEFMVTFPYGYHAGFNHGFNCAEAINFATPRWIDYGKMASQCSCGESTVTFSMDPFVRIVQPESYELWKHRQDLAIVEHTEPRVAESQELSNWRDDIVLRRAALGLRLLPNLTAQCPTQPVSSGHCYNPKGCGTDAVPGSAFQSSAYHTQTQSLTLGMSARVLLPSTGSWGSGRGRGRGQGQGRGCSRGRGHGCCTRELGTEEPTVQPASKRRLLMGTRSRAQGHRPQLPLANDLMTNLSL
UniProt P45983, 1-384 isoform 3: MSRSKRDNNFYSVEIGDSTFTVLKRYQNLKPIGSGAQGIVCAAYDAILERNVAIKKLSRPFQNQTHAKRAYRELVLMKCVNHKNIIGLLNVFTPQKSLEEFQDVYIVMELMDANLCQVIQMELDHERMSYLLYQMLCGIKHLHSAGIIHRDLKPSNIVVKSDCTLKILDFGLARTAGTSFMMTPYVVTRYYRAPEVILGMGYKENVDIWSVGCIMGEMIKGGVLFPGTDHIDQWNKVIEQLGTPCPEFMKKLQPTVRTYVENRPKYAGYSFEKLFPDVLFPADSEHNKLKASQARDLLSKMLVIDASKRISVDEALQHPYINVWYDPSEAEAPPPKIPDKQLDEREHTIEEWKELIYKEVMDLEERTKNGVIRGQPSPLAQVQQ
UniProt Q8N6T7, whole entry: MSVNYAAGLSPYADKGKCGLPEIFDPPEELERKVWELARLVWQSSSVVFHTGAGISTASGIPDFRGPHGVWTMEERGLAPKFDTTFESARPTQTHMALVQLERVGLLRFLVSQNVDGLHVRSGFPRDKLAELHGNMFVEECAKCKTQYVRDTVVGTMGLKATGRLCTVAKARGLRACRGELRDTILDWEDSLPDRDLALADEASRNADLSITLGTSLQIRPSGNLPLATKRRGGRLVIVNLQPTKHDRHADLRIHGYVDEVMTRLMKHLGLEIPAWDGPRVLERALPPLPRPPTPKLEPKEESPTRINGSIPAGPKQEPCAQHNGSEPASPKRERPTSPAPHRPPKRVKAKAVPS
UniProt P53004, whole entry, looked up: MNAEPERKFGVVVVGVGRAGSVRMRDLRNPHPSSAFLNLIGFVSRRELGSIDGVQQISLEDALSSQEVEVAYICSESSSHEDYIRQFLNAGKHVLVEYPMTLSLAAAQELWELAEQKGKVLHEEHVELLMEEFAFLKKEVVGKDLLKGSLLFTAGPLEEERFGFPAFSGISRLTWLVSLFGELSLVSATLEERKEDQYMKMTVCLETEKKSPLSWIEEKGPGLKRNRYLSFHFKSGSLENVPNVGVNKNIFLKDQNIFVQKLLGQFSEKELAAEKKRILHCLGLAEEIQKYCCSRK
UniProt P46154, whole entry: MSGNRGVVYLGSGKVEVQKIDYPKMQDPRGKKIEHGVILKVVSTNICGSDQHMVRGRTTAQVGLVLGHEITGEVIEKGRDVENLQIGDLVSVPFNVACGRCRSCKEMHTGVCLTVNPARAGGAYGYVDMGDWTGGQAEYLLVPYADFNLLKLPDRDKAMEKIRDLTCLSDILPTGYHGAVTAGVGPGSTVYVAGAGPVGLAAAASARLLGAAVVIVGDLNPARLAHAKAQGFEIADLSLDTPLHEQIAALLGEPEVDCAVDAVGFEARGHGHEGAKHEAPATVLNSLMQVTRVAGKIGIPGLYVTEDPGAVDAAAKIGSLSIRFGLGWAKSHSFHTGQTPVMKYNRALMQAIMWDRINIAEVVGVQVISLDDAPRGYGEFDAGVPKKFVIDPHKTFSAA
UniProt Q9GZT9, whole entry: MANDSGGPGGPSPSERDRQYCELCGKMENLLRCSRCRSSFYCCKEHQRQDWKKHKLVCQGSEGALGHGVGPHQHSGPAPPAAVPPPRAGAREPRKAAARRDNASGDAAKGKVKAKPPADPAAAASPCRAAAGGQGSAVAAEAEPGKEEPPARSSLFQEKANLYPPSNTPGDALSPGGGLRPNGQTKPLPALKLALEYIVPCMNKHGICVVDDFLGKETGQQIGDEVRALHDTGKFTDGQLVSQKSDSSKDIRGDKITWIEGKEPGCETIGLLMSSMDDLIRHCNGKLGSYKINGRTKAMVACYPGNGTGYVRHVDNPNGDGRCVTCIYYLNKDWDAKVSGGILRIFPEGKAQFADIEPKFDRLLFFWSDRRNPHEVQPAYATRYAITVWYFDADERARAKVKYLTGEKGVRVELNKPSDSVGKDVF
UniProt Q13546, whole entry: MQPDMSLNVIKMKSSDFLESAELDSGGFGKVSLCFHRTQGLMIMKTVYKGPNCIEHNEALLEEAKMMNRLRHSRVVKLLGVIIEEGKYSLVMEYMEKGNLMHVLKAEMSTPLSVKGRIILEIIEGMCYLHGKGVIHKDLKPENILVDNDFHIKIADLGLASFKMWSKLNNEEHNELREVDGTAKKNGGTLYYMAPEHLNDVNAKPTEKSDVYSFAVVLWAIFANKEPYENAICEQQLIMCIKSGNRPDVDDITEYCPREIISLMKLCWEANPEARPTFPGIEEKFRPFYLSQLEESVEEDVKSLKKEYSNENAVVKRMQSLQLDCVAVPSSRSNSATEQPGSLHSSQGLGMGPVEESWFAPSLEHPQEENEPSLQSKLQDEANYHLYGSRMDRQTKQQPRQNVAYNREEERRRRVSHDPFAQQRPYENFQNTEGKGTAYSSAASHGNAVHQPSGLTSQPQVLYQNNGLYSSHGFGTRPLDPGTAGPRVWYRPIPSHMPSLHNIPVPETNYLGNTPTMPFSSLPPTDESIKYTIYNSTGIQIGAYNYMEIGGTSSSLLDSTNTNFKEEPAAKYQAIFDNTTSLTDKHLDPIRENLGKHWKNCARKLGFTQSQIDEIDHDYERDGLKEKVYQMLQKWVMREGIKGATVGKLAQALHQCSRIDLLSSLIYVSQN

SMILES	target or system	test	test system	conditions	scale	measurement	result
Cc1cc(O)nc2ccc(NS(=O)(=O)c3cc(Cl)cc(Cl)c3O)cc12	malate dehydrogenase	aggregation counter-screen		100 µM, pH 7.0, 1% DMSO		remaining activity	71%
Cc1ncsc1-c1ccc([C@H](C)NC(=O)[C@@H]2C[C@@H](O)CN2C(=O)[C@@H](NC(=O)CCCCCCC(=O)N2CCN(C[C@]3(C)CCC(c4ccc(Cl)cc4)=C(CN4CCN(c5ccc(C(=O)NS(=O)(=O)c6ccc(N[C@H](CCN7CCOCC7)CSc7ccccc7)c(S(=O)(=O)C(F)(F)F)c6)cc5)CC4)C3)CC2)C(C)(C)C)cc1			STAM mice NASH-HCC model, liver	dose not given, day 90, treated from day 45		triglyceride level	decreased
C=CC(=O)N1CCC(c2cc(Nc3cc4n(n3)CCOC4)c3ncnn3c2)C1 (single isomer, unassigned)	Ramos	calcium flux, FLIPR		4 h preincubation, added: anti-IgM		maximum inhibition	27.4%
O=C(O)c1cccc(-c2cc(=O)n3nc(-c4ccco4)cc3[nH]2)c1	BLVRB			concentration not given		remaining activity	43%
Nc1ncc(-c2ccc3ncnc(N4CCc5cc(F)c(Cl)cc54)c3c2)cn1			CD1 mouse, plasma	oral, 100 mg/kg		dose-normalised AUC(0-t)	265 mg·h/mL
Cc1ccccc1Nc1c(C(=O)O)ccnc1C(=O)O	KDM4E	inhibitor, FDH-coupled spectrophotometry, measured: formaldehyde		200 µM		remaining activity	3%
Cc1c(-c2ccccc2)nn2c(=O)cc(-c3cccc(-c4nnn[nH]4)c3)[nH]c12	BLVRA (Homo sapiens, UniProt P53004)	enzyme activity, inhibitor		10 µM, added: biliverdin IXα 25 µM		remaining activity	112%
COC(=O)[C@@H]1C(c2nc3ccccc3s2)=Cc2cc3c(cc2[C@H]1c1cc(OC)c(OC)c(OC)c1)OCO3	Leishmania		mouse splenocytes		reference: CC50 over amastigote EC50	selectivity index	0.2
Cc1cc(NC(=O)c2cccc(NC(=O)C3=CC(C)(C)CC3=O)c2)ccc1Nc1nccc(-c2cccnc2)n1	MAPK8	kinase activity, inhibitor		0.5487 µM, unit not given, added: 10 mM GSH	reference: DMSO	remaining activity	0.346
COc1ccc(CNc2c(C(=O)O)ccnc2C(=O)O)cc1	KDM4E	inhibitor, FDH-coupled spectrophotometry, measured: formaldehyde		200 µM		remaining activity	29%
O=C(O)c1ccc(-c2nc(-c3ccccc3F)c3sccn23)cc1	BLVRB			concentration not given		remaining activity	37%
Nc1nonc1-n1cc(C(=O)N/N=C/c2cccs2)nn1	SIRT6	deacetylase activity, Fluor de Lys		100 µM, added: Ac-RHKK(Ac)-AMC substrate		remaining activity	32 ± 1.82%
O=C(O)c1ccnc(C(=O)O)c1Nc1ccc([N+](=O)[O-])cc1	KDM4E	inhibitor, FDH-coupled spectrophotometry, measured: formaldehyde		200 µM		remaining activity	0%
COC(=O)[C@@]1(C)C=C(C(=O)Nc2cccc(C(=O)NC34CC(Nc5nccc(-c6cccnc6)n5)(C3)C4)c2)C(=O)CC1	MAPK8	kinase activity, inhibitor		0.5487 µM, added: 10 mM GSH		remaining activity	0.0941 fraction of control
O=C(O)c1ccnc(C(=O)O)c1Nc1ccc(F)cc1F	fdhA (Pseudomonas putida, UniProt P46154)	inhibitor, spectrophotometric		200 µM, counterscreen		remaining activity	100%
Cc1cc(NC(=O)c2cccc(NC(=O)C3=CC(C)(C)CCC3=O)c2)ccc1Nc1nccc(-c2cccnc2)n1	MAPK8	kinase activity, inhibitor		400 µM, unit not given, added: 10 mM GSH	reference: DMSO	remaining activity	0.0364
COC(=O)[C@@H]1C(c2nc3ccccc3o2)=Cc2cc3c(cc2[C@H]1c1cc(OC)c(OC)c(OC)c1)OCO3	Leishmania infantum	Alamar Blue	HepG2		reference: CC50 HepG2 over EC50 amastigotes	selectivity index	2
CCc1c(-c2ccco2)nn2c(=O)cc(-c3cccc(C(=O)O)c3)[nH]c12	BLVRB			concentration not given		remaining activity	14%
COc1cccc(/C=N/NC(=O)c2cn(-c3nonc3N)nn2)c1O	SIRT6	deacetylase activity, Fluor de Lys		100 µM, added: Ac-RHKK(Ac)-AMC substrate		remaining activity	17.21 ± 0.04%
CCOC(=O)C1=C(C)NC2=C(C(=O)CC(C)(C)C2)C1c1ccc(OCC(=O)NN=Cc2cccc(C=O)c2)cc1OCC(=O)NN=Cc1cccc(C=O)c1 (stereo not shown)	Pseudomonas aeruginosa		DSM 50070	concentration not given, 24 h		inhibition zone diameter	2.3 ± 0.1 mm
COc1ccccc1Nc1c(C(=O)O)ccnc1C(=O)O	Egl nine homolog 1 (EGLN1, Homo sapiens, UniProt Q9GZT9)	inhibitor, HTRF		400 µM		remaining activity	100%
CCCCNC(=O)NC1CC=C(c2cc3c(Nc4cc5ncsc5cc4F)ncnc3s2)CC1 (stereo not shown)	Receptor-interacting serine/threonine-protein kinase 1 (RIPK1, Homo sapiens, UniProt Q13546)	kinase activity		1 µM	reference: control	remaining activity	109 ± 4%
